{"data": "Experimental data of several laboratories", "note": "Numbered parts are unrelated; each lists some results of a single study. Changes are numbered by the printed parent chain."}
{"data": "Set 1", "target": "CCNA2, cyclin fold, Cln2 fusion (human)", "technique": "yeast growth competition, sequencing", "sample": "yeast", "setting": "weak parent motif", "reference": "not given", "direction": "higher = stronger binding", "starting sequence": "SLBP docking peptide (human); ARYKRKLLINDFG"}
{"Change": "K4P", "normalised enrichment score": 0.0091}
{"Change": "N10D", "normalised enrichment score": 1.09}
{"Change": "G13V", "normalised enrichment score": 2.02}
{"Change": "L7R", "normalised enrichment score": 1.15}
{"Change": "Y3L", "normalised enrichment score": 1.49}
{"Change": "L8H", "normalised enrichment score": 1.32}
{"Change": "G13S", "normalised enrichment score": -0.122}
{"Change": "F12E", "normalised enrichment score": 0.454}
{"Change": "I9P", "normalised enrichment score": 1.64}
{"Change": "R2S", "normalised enrichment score": -0.12}
{"data": "Set 2", "target": "ABI1, truncated, D143A, DHFR fusion (Arabidopsis thaliana)", "technique": "DHFR PCA, deep sequencing", "sample": "yeast", "setting": "methotrexate growth selection, single substitutions", "with": "(+)-ABA 0.0091 µM", "reference": "wild-type fitted maximum", "direction": "higher = stronger binding", "starting sequence": "PYL1, truncated, DHFR fusion (Arabidopsis thaliana); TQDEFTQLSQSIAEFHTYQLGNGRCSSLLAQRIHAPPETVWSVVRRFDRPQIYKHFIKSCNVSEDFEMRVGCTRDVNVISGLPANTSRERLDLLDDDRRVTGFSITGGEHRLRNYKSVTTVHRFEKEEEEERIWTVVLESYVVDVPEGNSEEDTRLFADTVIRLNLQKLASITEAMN"}
{"Change": "I12M", "relative binding score": "1.66%"}
{"Change": "I57V", "relative binding score": "13.3%"}
{"Change": "T1Y", "relative binding score": "22.2%"}
{"Change": "Q167D", "relative binding score": "1.1%"}
{"Change": "G108C", "relative binding score": "0.78%"}
{"data": "Set 3", "target": "Histone acetyltransferase KAT6A, both winged helices, GST fusion (KAT6A, Homo sapiens, UniProt Q92794, residues 1-181)", "technique": "protein binding microarray", "molecule type": "double-stranded DNA, one strand shown", "sample": "in vitro", "concentration": "not given", "setting": "8-mer, flanks averaged, mean of 2 arrays, mostly near background", "reference": "not given", "direction": "higher = stronger binding", "Construct (chain)": "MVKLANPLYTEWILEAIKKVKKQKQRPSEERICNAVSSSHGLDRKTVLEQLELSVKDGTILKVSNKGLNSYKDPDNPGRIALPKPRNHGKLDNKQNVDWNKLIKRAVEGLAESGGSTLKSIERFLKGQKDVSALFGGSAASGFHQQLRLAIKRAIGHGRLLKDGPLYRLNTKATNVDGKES"}
{"Sequence": "AGCTGAGA", "E-score": -0.155}
{"Sequence": "CCCGGTAC", "E-score": 0.0691}
{"Sequence": "CAAGGCGA", "E-score": -0.123}
{"Sequence": "ACGGAGGA", "E-score": 0.0659}
{"Sequence": "CCGCAGGC", "E-score": 0.249}
{"Sequence": "AGCTGCAT", "E-score": -0.0703}
{"data": "Mixed results"}
{"Substance": "PhoQ, residues 284 288 289 292 302 303 QWQEDG", "target": "PhoP, residues 12 14 15 18 19 NFCKL (Escherichia coli, UniProt P23836)", "test": "Sort-seq, item: YFP reporter", "system": "E. coli", "conditions": "PhoQ-PhoP variant library, with: 10 µM Mg2+", "how to read": "reference: high Mg2+ state, higher = stronger signaling", "quantity": "fold induction", "value": 1.51}
{"note": "Repeated from above (set 3):"}
{"Sequence": "CCCGGTAC", "E-score": 0.0691}
